Experimental data gathered from unrelated publications.
± marks the error that the study gave.
Sialidase-2: Sialidase-2 (Homo sapiens, UniProt Q9Y3R4)
Chain of UniProt Q9Y3R4 (whole entry, looked up): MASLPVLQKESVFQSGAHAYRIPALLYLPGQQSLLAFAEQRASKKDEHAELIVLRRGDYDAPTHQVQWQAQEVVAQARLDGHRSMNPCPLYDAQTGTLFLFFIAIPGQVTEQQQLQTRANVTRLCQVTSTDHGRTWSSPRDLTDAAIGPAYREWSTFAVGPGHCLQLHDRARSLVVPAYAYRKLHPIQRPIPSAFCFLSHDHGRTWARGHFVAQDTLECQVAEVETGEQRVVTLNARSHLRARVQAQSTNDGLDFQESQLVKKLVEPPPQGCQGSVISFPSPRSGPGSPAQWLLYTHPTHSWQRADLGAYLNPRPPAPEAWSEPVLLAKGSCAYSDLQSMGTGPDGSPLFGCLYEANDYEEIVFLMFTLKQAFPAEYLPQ
Chain of UniProt Q16774 (whole entry, unmodified, looked up): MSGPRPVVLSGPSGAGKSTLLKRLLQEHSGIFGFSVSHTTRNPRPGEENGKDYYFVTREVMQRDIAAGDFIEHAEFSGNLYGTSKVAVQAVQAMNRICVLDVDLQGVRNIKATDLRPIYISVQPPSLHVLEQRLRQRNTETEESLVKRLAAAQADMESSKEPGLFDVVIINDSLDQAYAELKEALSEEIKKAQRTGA

Structure (SMILES)	tested on	assay	system	setting	scale	endpoint	result
C[C@@H](O)[C@H]1C(=O)N2C(C(=O)O)=C(S[C@@H]3CN[C@H](C(=O)N(C)C)C3)[C@H](C)[C@H]12	beta-lactamase RAD-1 (Riemerella anatipestifer)	substrate, continuous spectrophotometric hydrolysis		30 °C		Km	20 ± 2.2 µM
CN1CCN(C(=O)c2ccc([C@H]3[C@@H](F)[C@@H](F)C[C@@H](F)[C@H]3F)cc2)CC1		hepatocyte stability	cryopreserved mouse hepatocytes	1 µM		hepatic clearance	37 mL/min/kg
Nc1c(N=Nc2ccc(S(=O)(=O)CCOS(=O)(=O)O)cc2)c(S(=O)(=O)O)cc2cc(S(=O)(=O)O)c(N=Nc3ccc(S(=O)(=O)CCOS(=O)(=O)O)cc3)c(O)c12	alternative ancestral dye-decolorizing peroxidase	peroxidase activity, substrate, steady-state kinetics		25 °C, pH 3 ABTS, 4 others		Km	9 µM
CC(=O)N[C@H]1[C@H]([C@H](O)[C@H](O)CO)O[C@@](OC[C@H]2O[C@@H](Oc3ccc([N+](=O)[O-])cc3)[C@H](O)[C@@H](O)[C@H]2O)(C(=O)O)C[C@@H]1O	Sialidase-2	substrate		10 min, pH 5.0, 37 °C		Km	2100 ± 200 µM
N[C@H]1C(O)O[C@H](COP(=O)(O)O)[C@@H](O)[C@@H]1O (stereo partly drawn)	GNA1 (Naegleria fowleri)	substrate, DTNB		together with: acetyl-CoA		Km	1670 µM
[N-]=[N+]=NCC(=O)N[C@H]1[C@H]([C@H](O)[C@H](O)CO)O[C@@](OC[C@H]2O[C@@H](Oc3ccc([N+](=O)[O-])cc3)[C@H](O)[C@@H](O)[C@H]2O)(C(=O)O)C[C@@H]1O	Sialidase-2	substrate		10 min, pH 5.0, 37 °C		Km	600 ± 200 µM
C[C@H]1[C@H](NC(=O)/C(=N\OC(C)(C)C(=O)O)c2csc(N)n2)C(=O)N1S(=O)(=O)O	beta-lactamase RAD-1 (Riemerella anatipestifer)	substrate, continuous spectrophotometric hydrolysis		30 °C		Km	2560 ± 234 µM
CCCCCCCCCCCCCCCC(=O)SCCNC(=O)CCNC(=O)[C@H](O)C(C)(C)COP(=O)(O)OP(=O)(O)OC[C@H]1O[C@@H](n2cnc3c(N)ncnc32)[C@H](O)[C@@H]1OP(=O)(O)O	GPAT (Gat1 and Gat2), yeast	substrate	Saccharomyces cerevisiae, BY4741 wild type, total membranes	together with: [3H]glycerol-3-phosphate		Km	72.3 ± 21.5 µM
Nc1ccc2c(O)c(N=Nc3ccc(N=Nc4ccc(N=Nc5cc(S(=O)(=O)O)c6cccc(S(=O)(=O)O)c6c5)c5ccccc45)c4ccc(S(=O)(=O)O)cc34)c(S(=O)(=O)O)cc2c1	alternative ancestral dye-decolorizing peroxidase	peroxidase activity, substrate, steady-state kinetics		25 °C, pH 3 ABTS, 4 others		Km	23 µM
C[C@@H](O)[C@H]1C(=O)N2C(C(=O)O)=C(SCCN=CN)C[C@H]12	beta-lactamase RAD-1 (Riemerella anatipestifer)	substrate, continuous spectrophotometric hydrolysis		30 °C		Km	19 ± 1.8 µM
CC(=O)N[C@H]1[C@H]([C@H](O)[C@H](O)CO)OC(O[C@H]2[C@@H](O)[C@@H](CO)O[C@@H](Oc3ccc([N+](=O)[O-])cc3)[C@@H]2O)(C(=O)O)C[C@@H]1O (stereo partly drawn)	Sialidase-2	substrate		10 min, pH 5.0, 37 °C		Km	2200 ± 400 µM
Cn1cc(-c2ccc(-c3cncc(Cl)c3N3CCC4(CCNC4=O)CC3)cc2)cn1	COLO 205	gene expression, microarray, item: HIST2H4A mRNA		concentration not given, 6 h	baseline: untreated cells	log2 fold change	-2.63
Nc1nc2c(ncn2[C@@H]2O[C@H](COP(=O)(O)O)[C@@H](O)[C@H]2O)c(=O)[nH]1	GUK1 (Homo sapiens, UniProt Q16774, Y53A)	substrate, NADH-coupled				Km	1050 µM
CN(Cc1cccnc1)C(=O)c1ccc([C@H]2[C@@H](F)[C@@H](F)C[C@@H](F)[C@H]2F)cc1		hepatocyte stability	cryopreserved mouse hepatocytes	1 µM		hepatic clearance	53 mL/min/kg
CC1(C)S[C@@H]2[C@H](NC(=O)Cc3ccccc3)C(=O)N2[C@H]1C(=O)O	beta-lactamase RAD-1 (Riemerella anatipestifer)	substrate, continuous spectrophotometric hydrolysis		30 °C		Km	312 ± 39 µM

Some of these lines once more:
Structure (SMILES)	tested on	assay	system	setting	scale	endpoint	result
C[C@H]1[C@H](NC(=O)/C(=N\OC(C)(C)C(=O)O)c2csc(N)n2)C(=O)N1S(=O)(=O)O	beta-lactamase RAD-1 (Riemerella anatipestifer)	substrate, continuous spectrophotometric hydrolysis		30 °C		Km	2560 ± 234 µM
CCCCCCCCCCCCCCCC(=O)SCCNC(=O)CCNC(=O)[C@H](O)C(C)(C)COP(=O)(O)OP(=O)(O)OC[C@H]1O[C@@H](n2cnc3c(N)ncnc32)[C@H](O)[C@@H]1OP(=O)(O)O	GPAT (Gat1 and Gat2), yeast	substrate	Saccharomyces cerevisiae, BY4741 wild type, total membranes	together with: [3H]glycerol-3-phosphate		Km	72.3 ± 21.5 µM
